Published values collected from several papers.
Lines come from different studies, so protocols differ. Several values in a cell are separate wells, animals, samples, runs or records. ± marks the error that the study gave.
ache: Acetylcholinesterase (ache, Electrophorus electricus, UniProt O42275)
Sequence of UniProt O42275 (whole entry, looked up): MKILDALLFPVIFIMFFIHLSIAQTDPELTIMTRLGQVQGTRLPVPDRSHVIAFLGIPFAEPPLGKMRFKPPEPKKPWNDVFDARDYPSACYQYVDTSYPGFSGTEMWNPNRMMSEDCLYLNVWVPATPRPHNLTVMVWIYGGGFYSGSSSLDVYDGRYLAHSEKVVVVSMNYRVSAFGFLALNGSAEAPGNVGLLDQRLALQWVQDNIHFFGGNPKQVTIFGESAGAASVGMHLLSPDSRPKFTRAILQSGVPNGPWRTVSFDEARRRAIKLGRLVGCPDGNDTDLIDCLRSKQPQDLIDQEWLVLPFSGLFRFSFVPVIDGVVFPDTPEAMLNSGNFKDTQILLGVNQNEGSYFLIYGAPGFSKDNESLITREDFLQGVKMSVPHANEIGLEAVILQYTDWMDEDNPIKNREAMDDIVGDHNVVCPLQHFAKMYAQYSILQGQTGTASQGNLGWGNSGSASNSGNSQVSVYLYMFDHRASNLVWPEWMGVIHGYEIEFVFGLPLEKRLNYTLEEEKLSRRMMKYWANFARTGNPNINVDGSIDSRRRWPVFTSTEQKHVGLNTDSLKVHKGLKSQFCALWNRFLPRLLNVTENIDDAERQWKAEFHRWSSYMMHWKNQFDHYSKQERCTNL
Sequence of UniProt Q9Y2J8 (whole entry, looked up): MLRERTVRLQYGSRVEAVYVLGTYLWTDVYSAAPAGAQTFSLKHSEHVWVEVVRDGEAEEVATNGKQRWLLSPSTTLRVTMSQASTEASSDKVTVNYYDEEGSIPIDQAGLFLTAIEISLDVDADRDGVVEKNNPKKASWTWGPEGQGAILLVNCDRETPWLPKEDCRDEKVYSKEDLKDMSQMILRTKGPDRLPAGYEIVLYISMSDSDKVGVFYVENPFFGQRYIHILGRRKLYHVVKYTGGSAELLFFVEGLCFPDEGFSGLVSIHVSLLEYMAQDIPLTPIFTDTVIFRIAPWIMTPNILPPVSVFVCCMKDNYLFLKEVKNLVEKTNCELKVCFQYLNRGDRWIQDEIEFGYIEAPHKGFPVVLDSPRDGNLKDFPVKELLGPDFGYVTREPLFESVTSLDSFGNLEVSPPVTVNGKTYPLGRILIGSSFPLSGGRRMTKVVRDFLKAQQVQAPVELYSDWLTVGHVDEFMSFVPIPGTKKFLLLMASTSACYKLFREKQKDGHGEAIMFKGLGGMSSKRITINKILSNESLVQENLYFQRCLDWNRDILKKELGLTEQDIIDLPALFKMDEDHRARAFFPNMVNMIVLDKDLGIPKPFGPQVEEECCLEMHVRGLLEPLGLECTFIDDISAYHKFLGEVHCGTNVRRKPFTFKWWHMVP
Sequence of UniProt Q93009 (whole entry, looked up): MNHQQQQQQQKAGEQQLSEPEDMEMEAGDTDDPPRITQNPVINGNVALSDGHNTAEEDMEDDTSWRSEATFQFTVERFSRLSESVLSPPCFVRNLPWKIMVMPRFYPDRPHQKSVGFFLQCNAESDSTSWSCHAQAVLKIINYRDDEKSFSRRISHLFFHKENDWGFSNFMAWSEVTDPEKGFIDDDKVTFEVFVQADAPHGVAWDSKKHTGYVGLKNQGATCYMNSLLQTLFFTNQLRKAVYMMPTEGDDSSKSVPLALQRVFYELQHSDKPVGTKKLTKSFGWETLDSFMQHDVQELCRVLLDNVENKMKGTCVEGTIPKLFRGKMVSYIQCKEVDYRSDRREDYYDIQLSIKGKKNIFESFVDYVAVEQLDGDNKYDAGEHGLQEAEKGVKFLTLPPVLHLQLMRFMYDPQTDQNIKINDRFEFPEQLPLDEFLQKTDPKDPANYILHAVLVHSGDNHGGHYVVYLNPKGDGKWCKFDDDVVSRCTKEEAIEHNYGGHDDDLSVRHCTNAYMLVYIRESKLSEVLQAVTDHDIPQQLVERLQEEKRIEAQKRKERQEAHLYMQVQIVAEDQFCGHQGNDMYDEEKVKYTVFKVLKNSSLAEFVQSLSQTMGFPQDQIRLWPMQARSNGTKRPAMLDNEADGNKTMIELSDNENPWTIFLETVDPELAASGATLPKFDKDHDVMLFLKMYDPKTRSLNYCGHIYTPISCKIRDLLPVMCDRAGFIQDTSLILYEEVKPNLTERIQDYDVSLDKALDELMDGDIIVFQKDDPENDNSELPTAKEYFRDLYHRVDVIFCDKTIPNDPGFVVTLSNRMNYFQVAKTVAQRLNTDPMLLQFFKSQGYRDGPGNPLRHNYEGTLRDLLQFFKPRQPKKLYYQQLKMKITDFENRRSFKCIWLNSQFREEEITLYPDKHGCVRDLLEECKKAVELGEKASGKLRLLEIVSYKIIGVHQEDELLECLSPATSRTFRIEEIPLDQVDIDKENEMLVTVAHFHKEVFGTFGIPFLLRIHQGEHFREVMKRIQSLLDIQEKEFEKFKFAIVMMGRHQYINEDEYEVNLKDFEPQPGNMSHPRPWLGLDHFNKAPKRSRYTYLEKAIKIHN
Sequence of UniProt P41145 (whole entry, looked up): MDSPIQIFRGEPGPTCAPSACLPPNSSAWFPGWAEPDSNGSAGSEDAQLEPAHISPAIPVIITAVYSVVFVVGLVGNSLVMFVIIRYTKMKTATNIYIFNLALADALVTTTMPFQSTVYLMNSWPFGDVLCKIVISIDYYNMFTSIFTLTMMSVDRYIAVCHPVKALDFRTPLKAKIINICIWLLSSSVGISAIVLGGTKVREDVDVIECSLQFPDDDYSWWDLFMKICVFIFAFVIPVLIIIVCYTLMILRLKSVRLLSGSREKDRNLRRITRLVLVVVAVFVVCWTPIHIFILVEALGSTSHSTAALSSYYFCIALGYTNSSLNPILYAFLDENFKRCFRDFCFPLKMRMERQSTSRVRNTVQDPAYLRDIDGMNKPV
Sequence of UniProt P27448 (whole entry, looked up): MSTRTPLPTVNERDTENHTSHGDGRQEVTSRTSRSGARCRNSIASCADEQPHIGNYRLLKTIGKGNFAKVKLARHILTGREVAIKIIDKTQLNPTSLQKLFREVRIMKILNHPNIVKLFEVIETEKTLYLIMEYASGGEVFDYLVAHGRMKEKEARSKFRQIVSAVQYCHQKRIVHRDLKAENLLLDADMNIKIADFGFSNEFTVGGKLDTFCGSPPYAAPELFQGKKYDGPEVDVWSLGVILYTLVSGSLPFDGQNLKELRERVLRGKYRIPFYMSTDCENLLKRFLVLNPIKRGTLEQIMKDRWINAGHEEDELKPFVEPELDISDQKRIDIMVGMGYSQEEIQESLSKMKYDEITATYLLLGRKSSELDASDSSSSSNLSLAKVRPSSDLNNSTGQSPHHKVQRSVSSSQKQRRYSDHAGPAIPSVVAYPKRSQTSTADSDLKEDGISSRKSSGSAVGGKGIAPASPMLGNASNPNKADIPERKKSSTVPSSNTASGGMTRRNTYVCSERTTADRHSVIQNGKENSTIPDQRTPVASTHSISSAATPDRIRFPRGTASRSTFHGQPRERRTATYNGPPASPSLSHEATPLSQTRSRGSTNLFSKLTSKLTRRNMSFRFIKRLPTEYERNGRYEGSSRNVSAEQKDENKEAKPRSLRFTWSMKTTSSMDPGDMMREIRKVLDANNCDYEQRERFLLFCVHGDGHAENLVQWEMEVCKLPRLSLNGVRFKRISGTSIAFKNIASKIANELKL
Sequence of UniProt P16233 (whole entry, looked up): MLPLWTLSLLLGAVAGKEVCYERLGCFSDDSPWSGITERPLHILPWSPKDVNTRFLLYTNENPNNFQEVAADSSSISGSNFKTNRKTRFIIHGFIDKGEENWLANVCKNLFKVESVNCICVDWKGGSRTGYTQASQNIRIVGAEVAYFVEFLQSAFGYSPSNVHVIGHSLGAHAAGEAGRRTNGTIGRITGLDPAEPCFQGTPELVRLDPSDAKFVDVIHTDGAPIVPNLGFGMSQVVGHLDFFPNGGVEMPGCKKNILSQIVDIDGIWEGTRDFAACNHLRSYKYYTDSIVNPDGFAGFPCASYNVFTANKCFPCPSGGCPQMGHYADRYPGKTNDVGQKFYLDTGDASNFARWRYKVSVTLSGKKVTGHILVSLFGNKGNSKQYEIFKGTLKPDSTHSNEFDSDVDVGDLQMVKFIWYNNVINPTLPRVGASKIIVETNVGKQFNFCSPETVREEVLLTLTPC
Sequence of UniProt Q704Y3 (whole entry, unmodified, looked up): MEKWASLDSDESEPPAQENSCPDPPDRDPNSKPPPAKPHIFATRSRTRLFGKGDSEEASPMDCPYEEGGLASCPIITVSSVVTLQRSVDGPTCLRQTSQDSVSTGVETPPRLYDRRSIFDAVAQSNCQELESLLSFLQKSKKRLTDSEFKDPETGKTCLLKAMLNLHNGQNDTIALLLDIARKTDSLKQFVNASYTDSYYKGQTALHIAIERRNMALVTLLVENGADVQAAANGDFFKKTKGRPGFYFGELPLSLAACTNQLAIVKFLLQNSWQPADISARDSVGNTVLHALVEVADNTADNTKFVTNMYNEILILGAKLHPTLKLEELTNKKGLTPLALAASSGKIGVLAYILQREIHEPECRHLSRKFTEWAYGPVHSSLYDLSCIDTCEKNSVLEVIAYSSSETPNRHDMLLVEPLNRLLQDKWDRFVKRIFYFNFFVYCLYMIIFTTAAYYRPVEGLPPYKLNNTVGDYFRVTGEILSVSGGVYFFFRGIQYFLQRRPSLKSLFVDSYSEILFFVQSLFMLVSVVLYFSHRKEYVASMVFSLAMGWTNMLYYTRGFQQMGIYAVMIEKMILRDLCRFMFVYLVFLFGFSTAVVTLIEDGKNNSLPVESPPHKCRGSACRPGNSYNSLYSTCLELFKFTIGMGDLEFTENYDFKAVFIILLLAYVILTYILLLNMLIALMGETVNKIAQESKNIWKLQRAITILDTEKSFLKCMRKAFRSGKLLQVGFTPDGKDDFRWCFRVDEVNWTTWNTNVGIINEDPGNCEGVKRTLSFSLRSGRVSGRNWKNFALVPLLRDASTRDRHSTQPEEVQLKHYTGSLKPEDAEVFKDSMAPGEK

| Structure (SMILES) | target | test | conditions | how to read | quantity | result |
| --- | --- | --- | --- | --- | --- | --- |
| O=C1NC(=O)c2c1c1cc(F)c[n+]3c1c1c2c2cc(O)ccc2[n]1[Ru-4]312([N]=C=S)[S+]3CC[S+]1CC[S+]2CC3 (stereo not shown) | PAS domain-containing serine/threonine-protein kinase (PASK, Homo sapiens, UniProt Q96RG2) | enzyme activity | 100 nM, human enzyme, with: 10 µM ATP | relative to: untreated | remaining activity | 68% |
| N[C@H](C(=O)N1CCCC1)C1CCN(c2nccc3c(-c4ncc(Cl)cc4Cl)cccc23)CC1 | Protein-arginine deiminase type-2 (PADI2, Homo sapiens, UniProt Q9Y2J8) | enzyme activity | 0.6144 µM, with: Ca2+ 0.25 mM | – | kcat | 0.115 s⁻¹ and 0.101 s⁻¹ |
| CC(C)(C)c1cc(B(O)O)cc(C(C)(C)C)c1 | Beta-lactamase (ampC, Escherichia coli K-12, UniProt P00811) | inhibitor, CENTA hydrolysis | from calculated Ki | – | ligand efficiency | 0.43 |
| CN(C)[C@H]1C[C@@]23CC[C@@]4(O2)C(=CC[C@]2(C)[C@@H](c5ccc6ccncc6c5)CC[C@H]24)C=C3[C@@H](O)[C@@H]1O | MAP/microtubule affinity-regulating kinase 3 (MARK3, Homo sapiens, UniProt P27448) | ATP probe labelling, inhibitor, KiNativ profiling | 1 µM | – | inhibition | 1% |
| CC(C)[C@H]1NC(=O)C[C@H]2/C=C/CCSSC[C@@H](NC1=O)C(=O)N[C@H](Cc1cccc3ccccc13)C(=O)NCC(=O)O2 | Ephrin type-B receptor 1 (EPHB1, Homo sapiens, UniProt P54762) | enzyme activity, inhibitor | 10 µM | – | inhibition | 6.7% |
| CN(CC1CC1)[C@H]1COC[C@H]2NCCN(C(=O)Cc3ccc(Cl)c(Cl)c3)[C@@H]21 (relative stereo) | Kappa-type opioid receptor (OPRK1, Homo sapiens, UniProt P41145) | agonist | 0.3333 h | – | Emax | 79 ± 27% |
| O=C(O)c1cc(O)c2c(c1)[C@@H]([C@H]1c3cc(C(=O)O)cc(O)c3C(=O)c3c(O[C@@H]4O[C@H](CO)[C@@H](O)[C@H](O)[C@H]4O)cccc31)c1cccc(O[C@@H]3O[C@H](CO)[C@@H](O)[C@H](O)[C@H]3O)c1C2=O | Pancreatic triacylglycerol lipase (PNLIP, Homo sapiens, UniProt P16233) | enzyme activity, inhibitor, fluorescence | 50 µM | – | remaining activity | 5.43% |
| CCc1nc2ccc(C(=O)NCCCN(C)C)cn2c1N(C)Cc1cccs1 | ache | inhibitor | 5 µM | – | activity | active |
| O=C(O)C(/C=C/c1ccc(Cl)cc1)=N\Nc1nc(-c2ccc(F)cc2)cs1 | ache | Ellman | – | relative to: IC50 BChE over IC50 AChE | selectivity index | 7.48 |
| CCOC(=O)[C@@H]1Cc2c(cc([N+](=O)[O-])cc2[N+](=O)[O-])[C@H](O)[C@]12C(=O)Nc1ccc(Br)cc12 | Proto-oncogene tyrosine-protein kinase Src (SRC, Homo sapiens, UniProt P12931) | binding, competition with immobilised ligand | 0.1 µM | – | remaining binding | 88% |
| Cc1ccc(N2CC3CCC(C2)N3C)cc1C(=O)N[C@H](C)c1cc(-c2cnn(C)c2)nc2ccccc12 | Ubiquitin carboxyl-terminal hydrolase 7 (USP7, Homo sapiens, UniProt Q93009) | enzyme activity | 30 µM | – | remaining activity | 97% |
| CCCCC/C=C\C/C=C\C/C=C\C/C=C\CCCC(=O)NCCc1ccc(O)c(O)c1 | Transient receptor potential cation channel subfamily V member 1 (Trpv1, Mus musculus, UniProt Q704Y3, N552Q) | ion current, agonist, whole-cell patch clamp | N552Q | relative to: 3 mM 2-APB | maximal open probability | 0.82 ± 0.15 |
| CS(C)(=O)=Nc1ccc(-c2ccc(-c3nc4cc(O[C@@H]5CO[C@H]6[C@@H]5OC[C@H]6O)[nH]c4cc3F)cc2)cc1 | Vasopressin V2 receptor (AVPR2, Homo sapiens, UniProt P30518) | calcium signal, antagonist | 10 µM | – | inhibition | -5% |

Excerpt of the above:
| Structure (SMILES) | target | test | conditions | how to read | quantity | result |
| --- | --- | --- | --- | --- | --- | --- |
| CN(CC1CC1)[C@H]1COC[C@H]2NCCN(C(=O)Cc3ccc(Cl)c(Cl)c3)[C@@H]21 (relative stereo) | Kappa-type opioid receptor (OPRK1, Homo sapiens, UniProt P41145) | agonist | 0.3333 h | – | Emax | 79 ± 27% |
